# Published values collected from several papers.
# Lines come from different studies, so protocols differ. Several values in a cell are separate wells, animals, samples, runs or records. Numbers after ± are the reported error.
Structure (SMILES),organism,assay,system,conditions,how to read,endpoint,value
C=C(CN(C(=O)c1c(C(F)F)nn(C)c1F)C1CC1)c1ccc(Cl)cc1Cl,Sclerotinia sclerotiorum,,,1.56 mg/L,,colony diameter,23 mm and 12 mm and 20 mm and 16 mm and 15 mm
CCOC(=O)C1(Cc2ccccc2)CN(c2ccccc2)Cc2nnn(Cc3cccc(F)c3)c21 (stereo not drawn),human adenovirus 2,viral replication,HEL,,,EC50,> 100000 nM
N=C(N)c1ccc(OCc2ccc(-c3ccccc3)cc2COc2ccc(C(=N)N)cc2)cc1,Escherichia coli,checkerboard,BW25113 mcr-1 plasmid,"unit not given, with: rifampicin",lower = stronger synergy,FICI,≤ 0.031
COc1ccc(Br)c(/C=N/NC(=O)COc2ccc(-c3ccccc3)cc2)c1,Tetrahymena pyriformis and Klebsiella pneumoniae,virulence in co-culture,,,,IC50,54.7 nM
COC1=CC(c2ccc[nH]2)=N/C1=C\c1[nH]c(C)cc1-c1ccc(OC(F)(F)F)cc1.Cl,Plasmodium yoelii,,CF1 mice,"oral, 25 mg/kg daily for 4 days, day 5",reference: vehicle,parasitaemia reduction,100%
Nc1ccc(S(=O)(=O)NC(=O)/C=C\c2ccccc2Cl)cc1,Tetrahymena pyriformis and Klebsiella pneumoniae,virulence in co-culture,,,,IC50,12900 nM
CC1(C)SC2C(NC(=O)C(NC(=O)C3=C(O)C4CCCN4C3=O)c3ccccc3)C(=O)N2C1C(=O)O (stereo not drawn),Escherichia coli,broth microdilution,Keio mutant JW5195-1,18 h,,MIC,50 µg/mL
O=[N+]([O-])c1cc2c(ccc3c2ccc2cc([N+](=O)[O-])oc23)o1,Klebsiella aerogenes,REMA,,,,MIC90,> 32 µg/mL
C=CCSc1nnc(C)c(O)n1,Tetrahymena pyriformis and Klebsiella pneumoniae,virulence in co-culture,,,,IC50,2960 nM
COc1cnc(OC)n2nc(NS(=O)(=O)c3c(OCC(F)F)cccc3C(F)(F)F)nc12,Echinochloa crus-galli,,greenhouse,"postemergence, 150 g ai/ha, 21 days",,fresh weight inhibition,94.7 ± 1.21%
COC1=CC(c2ccc[nH]2)=N/C1=C\c1cc(Cc2ccc(C#N)cc2)c(C)[nH]1.Cl,Plasmodium yoelii,,CF1 mice,"oral, 10 mg/kg daily for 4 days, day 5",reference: vehicle,parasitaemia reduction,5.71%
C[C@H]1CN(c2n[nH]c3nc(N[C@H]4CC[C@H](NS(=O)(=O)CCC(F)(F)F)CC4)ncc23)CCO1,Leishmania donovani,cell growth,"promastigotes, LdBOB CYC9 overexpressing",,,EC50,8.2 ± 0.08 nM
CNCCCN(C)C(=O)Oc1c(Br)c(C)nc(C)c1-c1ccc(Oc2ccc(OC(F)(F)F)cc2)cc1,Plasmodium yoelii,,17XL,384-well,,IC50,2660 ± 457 nM
CSc1nc(O)n2nccc2n1,Tetrahymena pyriformis and Klebsiella pneumoniae,virulence in co-culture,,,,IC50,540 nM
COc1ccc2ccc3oc([N+](=O)[O-])cc3c2c1Br,Klebsiella aerogenes,REMA,,,,MIC90,0.09 µg/mL
CN[C@H](CC(C)C)C(=O)N[C@H]1C(=O)N[C@@H](CC(N)=O)C(=O)N[C@H]2C(=O)N[C@H]3C(=O)N[C@H](C(=O)N[C@H](C(=O)O)c4cc(O)cc(O)c4-c4cc3ccc4O)[C@H](O)c3ccc(c(Cl)c3)Oc3cc2cc(c3O[C@@H]2O[C@H](CO)[C@@H](O)[C@H](O)[C@H]2O[C@H]2C[C@](C)(N)[C@H](O)[C@H](C)O2)Oc2ccc(cc2Cl)[C@H]1O,Enterococcus faecalis,,OG1RF,,,MBC,11.7 µM
NC[C@H]1O[C@H](O[C@H]2[C@H](O)[C@@H](O[C@H]3O[C@H](CO)[C@@H](O)[C@H](N)[C@H]3O)[C@H](N)C[C@@H]2N)[C@H](O)[C@@H](O)[C@@H]1O,Acinetobacter baumannii,colony counting,"19606, biofilm","50 µg/mL, 12 h, without HNP1",,survival,0.674% and 1.35% and 1.26% and 0.539%
N#Cc1ccc2c(ccc3oc([N+](=O)[O-])cc32)c1,Klebsiella aerogenes,REMA,,,,MIC90,> 32 µg/mL
CC1=C(C)/C(=C/c2cc(Cc3ccc(OC(F)(F)F)cc3)c(C)[nH]2)N=C1c1ccc[nH]1.Cl,Plasmodium yoelii,parasitaemia,mouse,"4-day treatment, parasitaemia day 5",,ED90,4.21 mg/kg/day
CS(=O)(=O)CCCn1c(Cn2c(=O)n(CC(F)(F)F)c3ccncc32)cc2cc(Cl)ccc21,respiratory syncytial virus,RT-qPCR,"hospitalized infants 1-24 months, nasal swab","oral, 2, 1.5 or 1 mg/kg daily, day 4, low dose by age cohort",reference: placebo,LS mean difference vs placebo,-1.5 log10 copies/mL
CC[C@H](C)[C@H](NC(=O)[C@H](C)NC(=O)[C@H](CCCCN)NC(=O)[C@H](CC(C)C)NC(=O)[C@H](C)NC(=O)[C@@H](NC(=O)[C@H](Cc1c[nH]cn1)NC(=O)[C@H](CC(C)C)NC(=O)[C@@H](NC(=O)[C@@H](NC(=O)[C@H](CCCCN)NC(=O)[C@H](C)NC(=O)[C@H](C)NC(=O)[C@H](CO)NC(=O)[C@H](CCCCN)NC(=O)[C@H](Cc1ccccc1)NC(=O)[C@@H](NC(=O)[C@H](CCCCN)NC(=O)[C@H](CC(C)C)NC(=O)[C@H](Cc1ccccc1)NC(=O)[C@H](CO)NC(=O)[C@H](CCCCN)NC(=O)[C@H](Cc1c[nH]c2ccccc12)NC(=O)[C@H](CCCCN)NC(C)=O)[C@@H](C)O)[C@@H](C)O)C(C)C)[C@@H](C)O)C(=O)N[C@@H](CO)C(=O)N[C@@H](CO)C(N)=O,Streptococcus pyogenes,,erythromycin-sensitive,21 strains,,MBC50,32 µg/mL
COCCNCC(O)Cn1c2ccc(Cl)cc2c2cc(Cl)ccc21 (stereo not drawn),Plasmodium yoelii,oxygen consumption,17XL,2 µM,,inhibition,10%
CCOC(=O)COc1ccc2ccc3oc([N+](=O)[O-])cc3c2c1,Mycolicibacterium aurum,REMA,ATCC 23366,,,MIC90,0.25 µg/mL
O=C(O)CN(CC(=O)O)CC(=O)O,Klebsiella aerogenes,,VIM-1 producer,"32 µg/mL, with: meropenem",,meropenem MIC,1 µg/mL
O=C(NC1CCC(CN2CCC(c3c[nH]c4ccccc34)CC2)CC1)c1[nH]c(=O)[nH]c(=O)c1F (stereo not drawn),Plasmodium yoelii,,17XL,384-well,,IC50,> 20000 nM
CCOC(=O)C1(Cc2ccccc2)CN(c2ccccc2)Cc2nnn(CCCCCO)c21 (stereo not drawn),human adenovirus 2,viral replication,HEL,,,EC50,> 100000 nM
Cc1ccc2cccc(C(=O)O)c2c1,Tetrahymena pyriformis and Klebsiella pneumoniae,virulence in co-culture,,,,IC50,1460 nM
Cn1c(=O)ccc2ccc(F)c(CCNC[C@H]3CN(c4cnc5c(n4)NC(=O)CO5)C(=O)O3)c21,Bacteroides fragilis,,,,,MIC90,0.25 µg/mL
O=[N+]([O-])c1cc2c(ccc3cc(Br)ccc32)o1,Mycolicibacterium aurum,REMA,ATCC 23366,,,MIC90,> 32 µg/mL
[O-][N+]1=C(c2ccc(Cl)cc2)C2=NCCN2c2ccccc21,Parabacteroides distasonis and Bacteroides spp.,bacterial growth,,,,MIC90,0.125 µg/mL
COC1=CC(c2ccc[nH]2)=N/C1=C\c1[nH]c(C)cc1Cc1ccccc1.Cl,Plasmodium yoelii,,CF1 mice,"oral, 25 mg/kg daily for 4 days, day 5",reference: vehicle,parasitaemia reduction,100%
Cc1cc(O)c(C)c(O)c1C(=O)O,Tetrahymena pyriformis and Klebsiella pneumoniae,virulence in co-culture,,,,IC50,13700 nM
COc1cccc(C(=O)NN(C(=O)c2cc(C)cc(C)c2)C(C)(C)C)c1C,Anopheles gambiae,,"G3, lab susceptible","tarsal contact, dose not given, no blood meal, without RME",reference: control,lifespan,no effect
CN[C@H](CC(C)C)C(=O)N[C@H]1C(=O)N[C@@H](CC(N)=O)C(=O)N[C@H]2C(=O)N[C@H]3C(=O)N[C@H](C(=O)N[C@H](C(=O)O)c4cc(O)cc(O)c4-c4cc3ccc4O)[C@H](O)c3ccc(c(Cl)c3)Oc3cc2cc(c3O[C@@H]2O[C@H](CO)[C@@H](O)[C@H](O)[C@H]2O[C@H]2C[C@](C)(N)[C@H](O)[C@H](C)O2)Oc2ccc(cc2Cl)[C@H]1O,Staphylococcus aureus,,"CAAS-2019-CAAS-2019-17 clinical blaZ-resistant isolate, PBS",,,MBC,4 µg/mL
C[C@@H]1O[C@@H](O[C@H]2C[C@@H](O)[C@]3(CO)[C@H]4[C@H](O)C[C@]5(C)[C@@H](C6=CC(=O)OC6)CC[C@]5(O)[C@@H]4CC[C@]3(O)C2)[C@H](O)[C@H](O)[C@H]1O,Oncopeltus fasciatus,,,"diet, concentration not given",,hatchlings per female,134
Nc1ncnc2c1ncn2[C@@H]1O[C@@H]2COP(=O)(O)O[C@H]3[C@@H](O)[C@H](n4cnc5c(=O)[nH]cnc54)O[C@@H]3COP(=O)(O)O[C@H]2[C@H]1O,West Nile virus,"RNA sequencing, item: collagen modifying enzymes, biosynthesis, R-HSA-1650814",HFF-1 cells,"concentration not given, downregulated pathway",reference: WNV-infected untreated cells,fold enrichment,7.03
